{"data": "Results pooled from the literature", "note": "Lines come from different studies, so protocols differ.", "chain of UniProt P17865 (whole entry, looked up)": "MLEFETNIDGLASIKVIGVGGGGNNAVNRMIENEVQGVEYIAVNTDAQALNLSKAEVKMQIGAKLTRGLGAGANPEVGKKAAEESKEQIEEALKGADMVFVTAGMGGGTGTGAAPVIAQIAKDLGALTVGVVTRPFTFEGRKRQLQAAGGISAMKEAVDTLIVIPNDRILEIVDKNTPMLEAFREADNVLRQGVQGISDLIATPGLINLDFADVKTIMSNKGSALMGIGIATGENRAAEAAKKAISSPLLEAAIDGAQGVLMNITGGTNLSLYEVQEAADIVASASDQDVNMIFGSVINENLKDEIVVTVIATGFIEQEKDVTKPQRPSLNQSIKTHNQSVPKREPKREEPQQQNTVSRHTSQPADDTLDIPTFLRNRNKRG", "chain of UniProt P22629 (whole entry, looked up)": "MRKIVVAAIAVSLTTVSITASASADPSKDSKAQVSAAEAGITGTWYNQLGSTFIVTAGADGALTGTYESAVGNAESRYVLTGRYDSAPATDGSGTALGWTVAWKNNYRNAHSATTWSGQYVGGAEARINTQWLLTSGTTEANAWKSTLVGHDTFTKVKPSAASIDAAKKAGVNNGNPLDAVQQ", "chain of UniProt P0ADV1 (whole entry, looked up)": "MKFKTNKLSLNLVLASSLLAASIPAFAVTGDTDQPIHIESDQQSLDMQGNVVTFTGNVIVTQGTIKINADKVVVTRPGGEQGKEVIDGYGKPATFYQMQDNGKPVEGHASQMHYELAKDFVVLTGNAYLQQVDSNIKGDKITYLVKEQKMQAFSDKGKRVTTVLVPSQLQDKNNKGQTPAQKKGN", "chain of UniProt P22607 (whole entry, looked up)": "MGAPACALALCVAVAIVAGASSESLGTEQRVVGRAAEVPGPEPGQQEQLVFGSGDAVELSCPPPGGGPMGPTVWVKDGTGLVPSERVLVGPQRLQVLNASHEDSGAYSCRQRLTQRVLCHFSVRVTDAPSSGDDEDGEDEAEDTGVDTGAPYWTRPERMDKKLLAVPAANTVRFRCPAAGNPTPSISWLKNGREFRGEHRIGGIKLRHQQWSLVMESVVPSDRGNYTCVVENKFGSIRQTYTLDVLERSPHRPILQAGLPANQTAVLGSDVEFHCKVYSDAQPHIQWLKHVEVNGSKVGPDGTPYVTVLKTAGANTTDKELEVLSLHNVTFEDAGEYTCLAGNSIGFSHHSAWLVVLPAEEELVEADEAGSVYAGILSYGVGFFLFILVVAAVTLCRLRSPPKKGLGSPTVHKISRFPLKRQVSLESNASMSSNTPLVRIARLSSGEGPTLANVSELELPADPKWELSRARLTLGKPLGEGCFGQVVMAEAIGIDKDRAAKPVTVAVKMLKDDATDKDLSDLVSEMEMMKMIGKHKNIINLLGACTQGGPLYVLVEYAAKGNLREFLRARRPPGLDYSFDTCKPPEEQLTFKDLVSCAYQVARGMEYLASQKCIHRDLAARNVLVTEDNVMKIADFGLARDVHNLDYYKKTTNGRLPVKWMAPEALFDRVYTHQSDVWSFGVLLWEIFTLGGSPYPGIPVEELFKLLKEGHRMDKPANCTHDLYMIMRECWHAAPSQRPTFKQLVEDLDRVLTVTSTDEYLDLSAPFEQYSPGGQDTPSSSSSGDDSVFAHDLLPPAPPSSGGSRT", "chain of UniProt P02769 (whole entry, looked up)": "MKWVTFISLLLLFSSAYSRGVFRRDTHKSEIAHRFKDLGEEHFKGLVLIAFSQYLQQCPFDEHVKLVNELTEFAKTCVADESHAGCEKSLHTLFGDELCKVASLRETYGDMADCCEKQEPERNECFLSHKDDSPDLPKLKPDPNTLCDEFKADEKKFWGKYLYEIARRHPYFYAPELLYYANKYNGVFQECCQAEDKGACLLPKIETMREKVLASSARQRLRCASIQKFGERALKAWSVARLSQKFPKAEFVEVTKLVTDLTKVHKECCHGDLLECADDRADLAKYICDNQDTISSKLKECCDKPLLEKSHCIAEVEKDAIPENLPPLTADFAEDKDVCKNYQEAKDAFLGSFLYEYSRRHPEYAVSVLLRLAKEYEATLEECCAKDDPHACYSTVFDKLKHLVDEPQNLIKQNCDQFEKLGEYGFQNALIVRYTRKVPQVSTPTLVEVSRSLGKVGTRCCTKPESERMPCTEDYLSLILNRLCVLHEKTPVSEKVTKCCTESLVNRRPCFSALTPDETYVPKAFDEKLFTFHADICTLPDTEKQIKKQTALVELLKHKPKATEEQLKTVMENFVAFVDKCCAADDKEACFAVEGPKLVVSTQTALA", "chain of UniProt P31224 (whole entry, looked up)": "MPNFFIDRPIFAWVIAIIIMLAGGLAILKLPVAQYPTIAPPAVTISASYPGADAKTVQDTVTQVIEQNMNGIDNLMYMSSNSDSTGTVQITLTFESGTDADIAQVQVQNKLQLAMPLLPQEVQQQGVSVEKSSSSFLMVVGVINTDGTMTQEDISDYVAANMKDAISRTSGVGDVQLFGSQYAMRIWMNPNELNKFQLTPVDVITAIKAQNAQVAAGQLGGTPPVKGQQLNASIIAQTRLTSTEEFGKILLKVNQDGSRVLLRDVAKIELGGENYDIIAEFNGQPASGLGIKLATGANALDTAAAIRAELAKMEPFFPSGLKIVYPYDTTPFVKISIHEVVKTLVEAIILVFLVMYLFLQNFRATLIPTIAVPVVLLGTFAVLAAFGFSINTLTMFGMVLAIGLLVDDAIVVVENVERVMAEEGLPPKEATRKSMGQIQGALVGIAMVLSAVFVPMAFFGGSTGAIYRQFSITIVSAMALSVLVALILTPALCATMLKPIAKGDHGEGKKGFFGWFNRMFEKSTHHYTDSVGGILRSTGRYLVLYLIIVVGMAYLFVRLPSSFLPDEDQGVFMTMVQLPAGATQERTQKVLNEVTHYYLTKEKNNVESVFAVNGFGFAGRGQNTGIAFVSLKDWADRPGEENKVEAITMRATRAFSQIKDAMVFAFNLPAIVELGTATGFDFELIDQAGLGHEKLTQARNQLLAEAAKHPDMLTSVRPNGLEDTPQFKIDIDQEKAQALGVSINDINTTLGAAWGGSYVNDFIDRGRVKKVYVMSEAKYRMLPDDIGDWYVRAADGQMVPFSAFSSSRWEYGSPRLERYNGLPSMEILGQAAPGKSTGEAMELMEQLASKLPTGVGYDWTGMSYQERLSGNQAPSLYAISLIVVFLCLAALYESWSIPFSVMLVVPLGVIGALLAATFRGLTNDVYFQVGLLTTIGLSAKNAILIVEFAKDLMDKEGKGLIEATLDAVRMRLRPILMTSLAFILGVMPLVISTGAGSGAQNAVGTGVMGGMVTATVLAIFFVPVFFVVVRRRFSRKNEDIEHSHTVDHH", "chain of UniProt P00691 (whole entry, looked up)": "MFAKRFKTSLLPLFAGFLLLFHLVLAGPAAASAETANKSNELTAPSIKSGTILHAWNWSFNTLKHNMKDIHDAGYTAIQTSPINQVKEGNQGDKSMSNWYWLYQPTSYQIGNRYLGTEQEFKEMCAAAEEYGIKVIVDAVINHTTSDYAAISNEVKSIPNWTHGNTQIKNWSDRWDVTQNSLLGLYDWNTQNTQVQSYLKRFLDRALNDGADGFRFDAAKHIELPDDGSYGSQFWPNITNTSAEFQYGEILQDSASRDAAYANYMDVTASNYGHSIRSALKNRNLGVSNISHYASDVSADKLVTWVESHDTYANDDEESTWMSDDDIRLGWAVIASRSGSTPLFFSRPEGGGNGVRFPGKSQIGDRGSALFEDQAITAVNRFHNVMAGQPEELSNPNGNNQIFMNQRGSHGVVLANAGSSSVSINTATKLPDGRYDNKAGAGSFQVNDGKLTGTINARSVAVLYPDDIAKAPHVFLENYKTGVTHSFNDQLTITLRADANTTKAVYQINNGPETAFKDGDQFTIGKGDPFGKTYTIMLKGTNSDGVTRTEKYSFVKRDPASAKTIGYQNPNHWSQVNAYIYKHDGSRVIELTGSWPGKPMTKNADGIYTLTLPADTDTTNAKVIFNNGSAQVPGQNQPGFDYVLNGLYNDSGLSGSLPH", "chain of UniProt P27467 (whole entry, looked up)": "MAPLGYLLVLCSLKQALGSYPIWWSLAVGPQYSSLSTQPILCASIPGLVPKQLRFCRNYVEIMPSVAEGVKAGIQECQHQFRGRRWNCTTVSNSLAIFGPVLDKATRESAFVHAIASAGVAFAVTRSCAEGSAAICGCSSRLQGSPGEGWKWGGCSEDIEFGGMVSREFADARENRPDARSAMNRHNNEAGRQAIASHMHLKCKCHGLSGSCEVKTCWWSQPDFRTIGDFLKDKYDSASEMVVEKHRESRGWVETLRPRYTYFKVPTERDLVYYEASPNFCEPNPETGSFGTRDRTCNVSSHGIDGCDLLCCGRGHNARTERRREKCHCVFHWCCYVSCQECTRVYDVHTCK", "chain of UniProt A0A109QYD3 (whole entry, looked up)": "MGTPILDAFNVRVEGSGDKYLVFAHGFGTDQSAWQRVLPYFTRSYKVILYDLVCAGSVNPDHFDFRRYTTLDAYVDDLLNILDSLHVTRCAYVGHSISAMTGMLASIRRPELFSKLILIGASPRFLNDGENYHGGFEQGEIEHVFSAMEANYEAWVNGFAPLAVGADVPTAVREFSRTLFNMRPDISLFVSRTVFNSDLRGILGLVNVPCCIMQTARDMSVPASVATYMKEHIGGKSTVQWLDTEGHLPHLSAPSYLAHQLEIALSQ"}
{"Structure (SMILES)": "CC[C@H](C)[C@H](NC(=O)CN)C(=O)N[C@H](C(=O)N[C@@H](CC(N)=O)C(=O)N[C@H](C(=O)N[C@@H](CC(C)C)C(=O)N[C@@H](CCC(N)=O)C(=O)N[C@@H](CCCCN)C(=O)N[C@@H](Cc1ccc(O)cc1)C(=O)N[C@@H](Cc1ccc(O)cc1)C(=O)N[C@H]1CSSC[C@@H]2NC(=O)[C@H](CCCCN)NC(=O)[C@H](CCCNC(=N)N)NC(=O)CNC(=O)[C@H](CCCNC(=N)N)NC(=O)[C@H]([C@@H](C)O)NC(=O)[C@H](CO)NC(=O)[C@@H]3CSSC[C@H](NC(=O)[C@H](CCCNC(=N)N)NC(=O)CNC(=O)CNC(=O)[C@H](CCCNC(=N)N)NC(=O)[C@H](C(C)C)NC(=O)[C@H](CCCNC(=N)N)NC1=O)C(=O)N[C@@H](C)C(=O)N[C@@H](C(C)C)C(=O)N[C@@H](CC(C)C)C(=O)N[C@@H](CO)C(=O)N[C@@H](CSSC[C@@H](C(=O)N[C@@H](CCCNC(=N)N)C(=O)N[C@@H](CCCNC(=N)N)C(=O)N[C@@H](CCCCN)C(=O)N[C@@H](CCCCN)C(=O)O)NC2=O)C(=O)N[C@@H](CC(C)C)C(=O)N1CCC[C@H]1C(=O)N[C@@H](CCCCN)C(=O)N[C@@H](CCC(=O)O)C(=O)N[C@@H](CCC(=O)O)C(=O)N[C@@H](CCC(N)=O)C(=O)N[C@@H]([C@@H](C)CC)C(=O)NCC(=O)N[C@@H](CCCCN)C(=O)N3)[C@@H](C)O)[C@@H](C)CC", "target": "sapA (Haemophilus influenzae, UniProt Q4QL73)", "test": "binding, SPR", "setting": "pH 7.5, 25 °C, with: immobilised full-length defensin", "Kd": "0.0105 µM"}
{"Structure (SMILES)": "CC(C)[C@@H]1NC(=O)[C@H](CCC(N)=O)NC(=O)[C@@H]2CCCN2C(=O)[C@H](Cc2c[nH]cn2)NC(=O)CNC(=O)[C@@H](N)CSSC[C@@H](C(=O)NCC(N)=O)NC(=O)[C@@H]2CCCN2C1=O", "target": "Streptavidin (Streptomyces avidinii, UniProt P22629)", "Kd": "19.4 µM"}
{"Structure (SMILES)": "CC(C)C[C@@H]1NC(=O)[C@H](Cc2ccc(O)cc2)NC(=O)[C@H](CCCCN)NC(=O)[C@H](CCCNC(=N)N)NC(=O)[C@@H](Cc2ccc(O)cc2)NC(=O)CSC[C@@H](C(=O)NCC(N)=O)NC(=O)[C@H](Cc2c[nH]c3ccccc23)NC(=O)[C@H](Cc2c[nH]c3ccccc23)NC(=O)[C@H](Cc2ccccc2)NC(=O)[C@H](CCCNC(=N)N)NC(=O)[C@H](CCC(=O)O)NC(=O)[C@H](Cc2ccc(O)cc2)NC1=O", "target": "Protein Wnt-3a, with afamin-Fc (Mus musculus, UniProt P27467)", "test": "binding, SPR steady-state", "setting": "Fc-captured Wnt3a-afamin-Fc", "Kd": "0.319 µM"}
{"Structure (SMILES)": "CC[C@H](C)[C@H](NC(=O)[C@H](CCCNC(=N)N)NC(=O)[C@@H](NC(=O)[C@@H]1CSSC[C@H](NC(=O)[C@H](C)NC(=O)[C@@H](NC(=O)[C@@H](NC(=O)[C@@H]2CCCN2C(=O)[C@@H](NC(=O)[C@@H]2CCCN2C(=O)[C@H](CCCCN)NC(=O)[C@H](CO)NC(=O)CN)C(C)C)[C@@H](C)CC)[C@@H](C)CC)C(=O)N[C@@H](CC(N)=O)C(=O)N[C@@H](CCCNC(=N)N)C(=O)N[C@@H](CCCCN)C(=O)N[C@@H]([C@@H](C)O)C(=O)NCC(=O)N[C@@H](CCCCN)C(=O)N1)[C@@H](C)O)C(=O)O", "target": "lptA (Escherichia coli, UniProt P0ADV1)", "test": "binding, BLI", "Kd": "0.0005 µM"}
{"Structure (SMILES)": "Cc1cc(N)c2cc(NC(=O)c3ccc4c(-c5cccc(N)c5)cccc4c3)ccc2n1", "target": "acrB (Escherichia coli, UniProt P31224)", "test": "binding, SPR", "Kd": "20 µM"}
{"Structure (SMILES)": "CC(C)P(=S)(NP(=S)(C(C)C)C(C)C)C(C)C", "target": "Alpha-amylase (Bacillus subtilis, UniProt P00691)", "test": "fluorescence quenching", "setting": "310 K", "Kd": "916 µM"}
{"Structure (SMILES)": "CC[C@H](C)[C@H](NC(=O)[C@H](CC(C)C)NC(=O)[C@H](CCCCN)NC(=O)[C@H](Cc1ccccc1)NC(=O)[C@@H]1CCCN1C(=O)[C@@H]1CCCN1C(=O)[C@H](CCCNC(=N)N)NC(=O)[C@@H](NC(=O)[C@H](CC(C)C)NC(=O)[C@H](CCCCN)NC(=O)[C@@H]1CCCN1C(=O)[C@H](CCCCN)NC(=O)[C@@H]1CCCN1C(=O)[C@H](CO)NC(=O)[C@H](CO)NC(=O)[C@H](Cc1c[nH]cn1)NC(=O)CNC(=O)[C@H](Cc1ccc(OS(=O)(=O)O)cc1)NC(=O)[C@@H](N)CC(=O)O)C(C)C)C(=O)N1CCC[C@H]1C(=O)N[C@@H](CC(N)=O)C(=O)O", "target": "LRR receptor-like serine/threonine-protein kinase GSO1, ectodomain (GSO1, Arabidopsis thaliana, UniProt C0LGQ5)", "test": "grating-coupled interferometry", "system": "ectodomain", "setting": "pH 5.0, 25 °C", "Kd": "~0.001 µM"}
{"Structure (SMILES)": "CC(=O)O[C@@]12COC1C[C@H](O)C1(C)C(=O)[C@H](O)C3=C(C)[C@@H](OC(=O)/C=C/c4ccc5ccccc5c4)C[C@@](O)([C@@H](OC(=O)c4ccccc4)[C@@H]12)C3(C)C (stereo partly drawn)", "target": "ftsZ (Bacillus subtilis, UniProt P17865)", "test": "binding, fluorescence", "Kd": "29 µM"}
{"Structure (SMILES)": "CSCC[C@H](NC(C)=O)C(=O)N[C@@H](Cc1ccccc1)C(=O)N[C@@H](CC(N)=O)C(=O)N[C@H]1CSCc2cc3cc(c2)CSC[C@H](NC(=O)[C@H]([C@@H](C)O)NC(=O)[C@H](Cc2c[nH]cn2)NC(=O)[C@H](CO)NC(=O)[C@H](Cc2ccc(O)cc2)NC(=O)[C@H](Cc2ccccc2)NC(=O)[C@@H]2CCCN2C(=O)[C@H](CC(C)C)NC(=O)[C@H](CC(C)C)NC1=O)C(=O)N[C@@H](CO)C(=O)N[C@H](C(=O)NCC(=O)N[C@@H](CO)C(=O)NCC(=O)N[C@@H](CO)C(=O)NCC(=O)N[C@@H](CO)C(=O)N[C@@H](CC(=O)O)C(=O)N[C@@H](Cc1ccc(O)cc1)C(=O)N[C@@H](CCCCN)C(=O)N[C@@H](CC(=O)O)C(=O)N[C@@H](CC(=O)O)C(=O)N[C@@H](CC(=O)O)C(=O)N[C@@H](CC(=O)O)C(=O)N[C@@H](CCCCN)C(N)=O)CSC3", "target": "FGFR3 (Homo sapiens, UniProt P22607)", "test": "binding, BLI", "Kd": "0.0761 µM"}
{"Structure (SMILES)": "CC1=C(C)[C@H](Oc2c(F)cc3c(C)cc(=O)oc3c2F)OC1=O", "target": "RMS3 (Lathyrus oleraceus, UniProt A0A109QYD3)", "test": "binding, fluorescence", "Kd": "82.6 µM"}
{"Structure (SMILES)": "O=C(O[C@@H]1Cc2c(O)cc(O)cc2O[C@@H]1c1cc(O)c(O)c(O)c1)c1cc(O)c(O)c(O)c1", "target": "Albumin (ALB, Bos taurus, UniProt P02769)", "test": "binding, fluorescence quenching", "setting": "pH 7.4, with: BSA 3 µM", "Kd": "0.217 µM"}
{"Structure (SMILES)": "CC(C)C[C@H](NC(=O)[C@@H](NC(=O)[C@H](CCCCN(C)C)NC(=O)[C@H](CCCNC(=N)N)NC(=O)[C@H](Cc1c[nH]cn1)NC(=O)[C@H](CCCNC(=N)N)NC(=O)[C@H](CCCCN)NC(=O)[C@H](C)NC(=O)CN)C(C)C)C(=O)N[C@@H](CCCNC(=N)N)C(=O)N[C@@H](CC(=O)O)C(=O)N[C@@H](CC(N)=O)C(=O)O", "target": "Origin recognition complex subunit 1, BAH domain (Orc1, Mus musculus, UniProt Q9Z1N2)", "test": "binding, isothermal titration calorimetry", "setting": "pH 7.5, 5 °C, histone H4 peptide binding", "Kd": "9.6 µM"}
{"note": "A few entries again:"}
{"Structure (SMILES)": "CC[C@H](C)[C@H](NC(=O)[C@H](CCCNC(=N)N)NC(=O)[C@@H](NC(=O)[C@@H]1CSSC[C@H](NC(=O)[C@H](C)NC(=O)[C@@H](NC(=O)[C@@H](NC(=O)[C@@H]2CCCN2C(=O)[C@@H](NC(=O)[C@@H]2CCCN2C(=O)[C@H](CCCCN)NC(=O)[C@H](CO)NC(=O)CN)C(C)C)[C@@H](C)CC)[C@@H](C)CC)C(=O)N[C@@H](CC(N)=O)C(=O)N[C@@H](CCCNC(=N)N)C(=O)N[C@@H](CCCCN)C(=O)N[C@@H]([C@@H](C)O)C(=O)NCC(=O)N[C@@H](CCCCN)C(=O)N1)[C@@H](C)O)C(=O)O", "target": "lptA (Escherichia coli, UniProt P0ADV1)", "test": "binding, BLI", "Kd": "0.0005 µM"}
{"Structure (SMILES)": "Cc1cc(N)c2cc(NC(=O)c3ccc4c(-c5cccc(N)c5)cccc4c3)ccc2n1", "target": "acrB (Escherichia coli, UniProt P31224)", "test": "binding, SPR", "Kd": "20 µM"}
